Published values of several laboratories.
Lines come from different studies, so protocols differ. Several values in a cell are separate wells, animals, samples, runs or records. ± gives the spread as reported.

CC(C)[C@@H]1NC(=O)[C@@H]2CCCN2C(=O)[C@@H](C(C)C)NC(=O)[C@H]2CCCN2C(=O)[C@H](C(C)C)NC(=O)[C@@H]2CCCN2C(=O)[C@@H](C(C)C)NC(=O)[C@H]2CCCN2C(=O)[C@H](C(C)C)NC(=O)[C@@H]2CCCN2C(=O)[C@@H](C(C)C)NC(=O)[C@H]2CCCN2C1=O
bi-ionic potential (sheep lipid bilayer; 10 µM, pH 7.4, 23 °C, with: 10 mM K+ vs Cs chloride): -5 mV

O=C(O)c1ccc(-c2nc(-c3ccccc3Cl)c3sccn23)cc1
platelet count change (C57BL/6 mice; dose not given, day 10, basal hematopoiesis): 110% and 88.9% and 120%

COc1ccccc1-c1n[nH]c2nc(NC3CCN(C(=O)Cc4ccc(F)cc4F)CC3)ncc12
relative abundance (bead binding, competition bead pull-down, measured: LMJF.25.1420; Leishmania donovani axenic amastigote extract; 10 µM; baseline: vehicle): 1.06

COC(=O)[C@H](CC(C)C)NC(=O)[C@@H]1CCCN1C(=O)[C@@H](NC(=O)[C@H](CCC(=O)C=[N+]=[N-])NC(=O)OCc1ccccc1)C(C)C
membrane potential (safranine O; isolated mouse brain mitochondria; 0.02 mM, with: ATP 2 mM): no effect

Cc1ccc(S(=O)(=O)N2CC2C(=O)N(C)C)cc1 (centres unmarked)
tumour growth inhibition (mouse, Lewis lung carcinoma; intraperitoneal, 170 mg/kg, 16 doses, day 13): 37%

CCN(Cc1ccccc1)C(=O)CCc1nc(CN2CCN(C(=O)Cc3ccc(OC)c(OC)c3)CC2)no1
resting membrane potential (current clamp; DRG neurons, naive rat; 10 µM): -59.4 ± 2.15 mV

[Cu+2].c1cnc2c(c1)c1nccnc1c1cccnc12.c1cnc2c(c1)c1nccnc1c1cccnc12
supercoiled DNA form (oxidative DNA cleavage; supercoiled pUC19 DNA; 100 µM, 30 min, with: ascorbic acid 50 µM, DNA 40 µM): 6%

CCCCCCCCCCCC1CC(=O)NC(CC(N)=O)C(=O)NC(Cc2ccc(O)cc2)C(=O)NC(CC(N)=O)C(=O)NC(CCC(N)=O)C(=O)N2CCCC2C(=O)NC(CC(N)=O)C(=O)NC(CO)C(=O)N1 (centres unmarked)
maximum fusion (calcein leakage; DOPC/CHOL liposomes; concentration not given, with: 20 wt% PEG-8000): 71 ± 7%

CCCC[C@@H]1NC(=O)[C@H](Cc2ccc(O)cc2)NC(=O)[C@@H]2CCCN2C(=O)[C@H](CC(=O)O)NC(=O)[C@H](C)NC(=O)[C@H](Cc2ccccc2)NC(=O)[C@@H]2CSCCC(=O)N3CN(CN(C3)C(=O)CCSC[C@@H](C(=O)N[C@@H](C)C(N)=O)NC1=O)C(=O)CCSC[C@H](NC(C)=O)C(=O)N[C@@H](CC(C)(C)C)C(=O)N1CCC[C@H]1C(=O)N[C@@H](CCC(=O)O)C(=O)N[C@H](CCCCNC(=O)CCc1cn(CCOCCOCCOCCN(CCOCCOCCOCCC(=O)N[C@H]3CSCCC(=O)N4CN5CN(C4)C(=O)CCSC[C@H](NC(=O)[C@@H](CC(=O)O)NC(=O)[C@H](Cc4cccc6ccccc46)NC(=O)[C@@H]4CCCN4C3=O)C(=O)N[C@@H](CCSC)C(=O)N[C@@H](CCCCNC(=N)N)C(=O)N[C@@H](CC(=O)O)C(=O)N[C@@H](Cc3c[nH]c4ccccc34)C(=O)N[C@@H](CO)C(=O)N[C@@H]([C@@H](C)O)C(=O)N3CCC[C@H]3C(=O)N3C[C@H](O)C[C@H]3C(=O)N[C@@H](Cc3c[nH]c4ccccc34)C(=O)N[C@H](C(N)=O)CSCCC5=O)CCOCCOCCOCCn3cc(CCC(=O)NCCCC[C@H]4NC(=O)[C@H](CCC(=O)O)NC(=O)[C@@H]5CCCN5C(=O)[C@H](CC(C)(C)C)NC(=O)[C@@H](NC(C)=O)CSCCC(=O)N5CN6CN(C5)C(=O)CCSC[C@H](NC(=O)[C@H](Cc5ccc(O)cc5)NC(=O)[C@@H]5CCCN5C4=O)C(=O)N[C@@H](Cc4ccccc4)C(=O)N[C@@H](C)C(=O)N[C@@H](CC(=O)O)C(=O)N4CCC[C@H]4C(=O)N[C@@H](Cc4ccc(O)cc4)C(=O)N[C@@H](CCCC)C(=O)N[C@H](C(=O)N[C@@H](C)C(N)=O)CSCCC6=O)nn3)nn1)C(=O)N1CCC[C@H]1C(=O)N[C@@H](Cc1ccc(O)cc1)C(=O)N2
mRNA level (NanoString, measured: Bst1-mRNA; mouse bearing MC38-Nectin-4 tumour, circulating white blood cells; 5 mg/kg, 24 h after dosing, unit not given; baseline: vehicle): 2.03

COc1ccccc1-c1n[nH]c2nc(N[C@H]3CC[C@H](NS(=O)(=O)CC(C)C)CC3)ncc12
relative abundance (bead binding, competition bead pull-down, measured: LINJ.29.1250; Leishmania donovani extract; 10 µM; baseline: vehicle): 0.87

Cc1ccc(C2=CC(C)(C)Oc3ccc(-c4ccc(-c5ccc(C(=O)O)cc5)[nH]4)cc32)cc1
testis weight (CD1 mouse, male; 20 mg/kg, 1 day after treatment, dosed for 2 weeks): 0.117 g and 0.0643 g and 0.105 g and 0.108 g and 0.0871 g

For quick reference, copied from above:
[Cu+2].c1cnc2c(c1)c1nccnc1c1cccnc12.c1cnc2c(c1)c1nccnc1c1cccnc12
supercoiled DNA form (oxidative DNA cleavage; supercoiled pUC19 DNA; 100 µM, 30 min, with: ascorbic acid 50 µM, DNA 40 µM): 6%

COc1ccccc1-c1n[nH]c2nc(NC3CCN(C(=O)Cc4ccc(F)cc4F)CC3)ncc12
relative abundance (bead binding, competition bead pull-down, measured: LMJF.25.1420; Leishmania donovani axenic amastigote extract; 10 µM; baseline: vehicle): 1.06
